{"data": "Measurements gathered from unrelated publications", "note": "A part holds a random share of what one study measured. Substitutions count along the parent as printed."}
{"data": "Sample 1", "target": "Fragile X messenger ribonucleoprotein 1, C-terminal low-complexity region (Fmr1, Mus musculus, UniProt P35922)", "technique": "RNA Bind-n-Seq", "form": "RNA", "medium": "in vitro", "concentration": "200 nM", "setting": "whole 134-nt RNA, ends assumed", "together with": "150 mM LiCl", "relative to": "input library", "reading": "higher = stronger binding", "library": "7-deaza-guanosine replaces G", "all sequences stand within": "GGGAGUUCUACAGUCCGACGAUC … UGGAAUUCUCGGGUGUCAAGG"}
{"Sequence": "UGUUCCUGUUGAUGAAAAUCUUUUCACUGGAGAGGAUUUGGAUGAACUAGAAGAAGAAUUAAAUACACUUGAUUUAGAAGAAUGACACCA", "log2 enrichment": -1.29}
{"Sequence": "UAACUUUAGAGGAGGAUCUGAUGGACAUGGCAGUGGACGUGGAUUUGGGGAUGGCUAUAAUGGGUAUGGAGGAGGACCUGGAGGUGGCAA", "log2 enrichment": -0.151}
{"Sequence": "CCUGUGCUACACAUCGUAUGUACCGAAUCGGGGUUUUUUUGGGGUGGGGUUUUUUUGGGGAAAGUAUUAUGUUACGCCGUUCGGAUCUGC", "log2 enrichment": -1.34}
{"Sequence": "CAAGUCCUGUGCUACACAUCGUAUGUACCGAAUCGGAGGUUUUUUUGGUUUUUGGAAAGUAUUAUGUUACGCCGUUCGGAUCUGCACUUC", "log2 enrichment": -1.69}
{"Sequence": "CAAGUCCUGUGCUACACAUCGUAUGUACCGAAUCGGGAAGGGGAAGGGGAAGGGGAAAGUAUUAUGUUACGCCGUUCGGAUCUGCACUUC", "log2 enrichment": -0.312}
{"Sequence": "ACCAUGCAGGUGGGCAUCUUUGGGAAGUGGGGCAAGGGGGGGAUAGGGAGGGGGGUAACACUUUGGGAACAGGUGGUCCCAGGGCGUUUC", "log2 enrichment": 0.796}
{"Sequence": "CCUCAAGUCCUGUGCUACACAUCGUAUGUACCGAAUCGGAAAAAGGUGGUGGAAAGUAUUAUGUUACGCCGUUCGGAUCUGCACUUCCAG", "log2 enrichment": -0.0561}
{"Sequence": "GUCCUGUGCUACACAUCGUAUGUACCGAAUCGGGGCCCCGGGGCCCCGGGGCCCCGGGAAAGUAUUAUGUUACGCCGUUCGGAUCUGCAC", "log2 enrichment": 0.455}
{"data": "Sample 2", "target": "Prothrombin, mature alpha-thrombin (F2, Homo sapiens, UniProt P00734)", "technique": "aptamer microarray, sandwich", "form": "DNA with 2'F-ANA", "medium": "in vitro", "concentration": "200 nM", "setting": "whole 15-mer aptamer, many near background", "together with": "Cy3 exosite-II aptamer, 400 nM", "reading": "higher = stronger binding", "sequence": "GGTTGGTGTGGTTGG"}
{"Modification": "2'F-ANA at 4 9 11 12 13 14", "mean fluorescence intensity [a.u.]": 92.9}
{"Modification": "2'F-ANA at 4 9 10 14 15", "mean fluorescence intensity [a.u.]": 72.5}
{"Modification": "2'F-ANA at 2 5 6 7 10 12", "mean fluorescence intensity [a.u.]": 49.8}
{"Modification": "2'F-ANA at 1 2 4 5 6 7 8 10 11 12 13", "mean fluorescence intensity [a.u.]": 109}
{"Modification": "2'F-ANA at 1 2 4 5 7 8 11 12 13 14", "mean fluorescence intensity [a.u.]": 51.9}
{"Modification": "2'F-ANA at 2 6 8 10 11 12 13", "mean fluorescence intensity [a.u.]": 119}
{"Modification": "2'F-ANA at 2 4 5 6 7 8 9 13 15", "mean fluorescence intensity [a.u.]": 53.1}
{"Modification": "2'F-ANA at 1 2 3 6 12 13", "mean fluorescence intensity [a.u.]": 336}
{"data": "Sample 3", "Change": "R132N", "target": "ABI1, truncated, D143A, DHFR fusion (Arabidopsis thaliana)", "technique": "DHFR PCA, deep sequencing", "medium": "yeast", "setting": "methotrexate growth selection, single substitutions", "relative to": "wild-type fitted maximum", "reading": "higher = stronger binding", "starting sequence": "PYL1, truncated, DHFR fusion (Arabidopsis thaliana); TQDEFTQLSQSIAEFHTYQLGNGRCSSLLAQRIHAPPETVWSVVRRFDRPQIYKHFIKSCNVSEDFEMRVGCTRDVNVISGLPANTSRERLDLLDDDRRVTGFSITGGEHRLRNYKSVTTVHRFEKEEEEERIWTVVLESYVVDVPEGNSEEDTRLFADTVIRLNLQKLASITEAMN; partner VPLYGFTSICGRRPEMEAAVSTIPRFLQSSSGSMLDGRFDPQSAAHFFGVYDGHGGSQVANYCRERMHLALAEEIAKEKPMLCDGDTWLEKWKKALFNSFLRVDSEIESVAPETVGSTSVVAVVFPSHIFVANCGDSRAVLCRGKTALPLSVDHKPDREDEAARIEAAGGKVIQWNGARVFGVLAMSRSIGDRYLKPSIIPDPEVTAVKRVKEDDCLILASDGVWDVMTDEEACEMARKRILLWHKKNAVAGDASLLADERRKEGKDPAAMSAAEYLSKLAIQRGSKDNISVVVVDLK"}
{"together with": "(+)-ABA 0.11 µM", "relative binding score": "51.2%"}
{"together with": "(+)-ABA 0.032 µM", "relative binding score": "43.8%"}
{"together with": "(+)-ABA 710 µM", "relative binding score": "111%"}
{"together with": "(+)-ABA 17 µM", "relative binding score": "98%"}
{"together with": "(+)-ABA 2500 µM", "relative binding score": "108%"}
{"together with": "(+)-ABA 58 µM", "relative binding score": "99.1%"}
{"data": "Mixed results", "starting sequence": "viral docking peptide; KGVKRKLFAEDSS; partner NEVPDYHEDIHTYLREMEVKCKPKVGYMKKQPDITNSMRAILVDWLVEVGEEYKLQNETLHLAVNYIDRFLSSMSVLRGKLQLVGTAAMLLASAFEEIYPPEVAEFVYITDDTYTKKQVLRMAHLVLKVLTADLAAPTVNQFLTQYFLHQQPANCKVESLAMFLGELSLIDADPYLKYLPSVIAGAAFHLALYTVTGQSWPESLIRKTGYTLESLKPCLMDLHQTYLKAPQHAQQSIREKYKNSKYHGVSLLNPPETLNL"}
{"Change": "KGVKRKLFAHDSS [E10H]", "target": "CCNA2, cyclin fold, Cln2 fusion (human)", "test": "yeast growth competition, sequencing", "system": "yeast", "conditions": "strong parent motif", "how to read": "relative to: not given, higher = stronger binding", "measurement": "normalised enrichment score", "value": 5.38}
{"note": "For quick reference, copied from above (sample 2):"}
{"Modification": "2'F-ANA at 2 6 8 10 11 12 13", "mean fluorescence intensity [a.u.]": 119}
{"Modification": "2'F-ANA at 1 2 3 6 12 13", "mean fluorescence intensity [a.u.]": 336}
